Measurements pooled from the literature.
Numbered parts are unrelated; each lists some results of a single study.

Series 1 — technique: universal PBM; form: double-stranded DNA, one strand shown; sample: in vitro; concentration: 600 nM; direction: higher = stronger binding
Target: Sal-like protein 4, full length isoform A (SALL4, Homo sapiens, UniProt Q9UJQ4, residues 1-1053)
Sequence of UniProt Q9UJQ4 (whole entry, looked up): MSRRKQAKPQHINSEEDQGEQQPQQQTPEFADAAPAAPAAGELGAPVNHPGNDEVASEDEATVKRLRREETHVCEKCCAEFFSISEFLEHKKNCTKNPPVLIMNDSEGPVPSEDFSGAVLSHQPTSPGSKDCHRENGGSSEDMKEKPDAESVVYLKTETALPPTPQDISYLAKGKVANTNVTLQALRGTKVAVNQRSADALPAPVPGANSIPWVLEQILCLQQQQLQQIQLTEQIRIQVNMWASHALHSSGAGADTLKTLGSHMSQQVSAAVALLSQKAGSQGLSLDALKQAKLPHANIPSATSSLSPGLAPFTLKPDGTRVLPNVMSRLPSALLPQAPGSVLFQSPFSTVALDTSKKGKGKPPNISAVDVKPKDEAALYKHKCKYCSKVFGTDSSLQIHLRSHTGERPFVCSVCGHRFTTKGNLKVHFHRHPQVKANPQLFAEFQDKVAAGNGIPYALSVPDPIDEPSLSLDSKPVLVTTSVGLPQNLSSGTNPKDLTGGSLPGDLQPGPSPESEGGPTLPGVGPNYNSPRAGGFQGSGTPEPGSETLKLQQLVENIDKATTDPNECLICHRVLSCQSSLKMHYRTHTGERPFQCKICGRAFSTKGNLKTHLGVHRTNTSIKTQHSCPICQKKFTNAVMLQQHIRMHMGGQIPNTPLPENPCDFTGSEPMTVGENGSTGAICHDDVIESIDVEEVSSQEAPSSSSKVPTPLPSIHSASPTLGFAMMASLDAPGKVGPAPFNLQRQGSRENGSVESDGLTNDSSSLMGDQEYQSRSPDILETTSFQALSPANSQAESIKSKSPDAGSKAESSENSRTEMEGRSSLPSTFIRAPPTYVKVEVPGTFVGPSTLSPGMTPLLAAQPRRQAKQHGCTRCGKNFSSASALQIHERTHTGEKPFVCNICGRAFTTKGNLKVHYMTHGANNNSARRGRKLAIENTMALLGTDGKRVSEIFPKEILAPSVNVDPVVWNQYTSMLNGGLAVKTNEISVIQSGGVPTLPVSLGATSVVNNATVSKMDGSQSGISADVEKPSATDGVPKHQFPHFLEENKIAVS
Notes: 8-mer, flanks averaged, mean of replicates
The E-score of `TAGGCCCA` is reported as -0.198.
The E-score of `GACTTTAA` is reported as 0.202.
The E-score of `GAAATTCA` is reported as 0.183.
`CGATATGA` gave an E-score of 0.256.
`AGTTCATG` gave an E-score of -0.0762.
For `AGCCGTCC`, the E-score was -0.14.
With `CTTCCCCC` the E-score was -0.132.
`CCTTGGAA` has an E-score of 0.0143.

Series 2 — technique: RNAcompete; form: RNA; sample: in vitro; concentration: 20 nM; notes: 7-mer, probes averaged, single round; relative to: mean of 7-mers; direction: higher = stronger binding
Target: PABPC1L2, full length, GST fusion (mouse, UniProt A0ABA7IW68)
Residues (chain): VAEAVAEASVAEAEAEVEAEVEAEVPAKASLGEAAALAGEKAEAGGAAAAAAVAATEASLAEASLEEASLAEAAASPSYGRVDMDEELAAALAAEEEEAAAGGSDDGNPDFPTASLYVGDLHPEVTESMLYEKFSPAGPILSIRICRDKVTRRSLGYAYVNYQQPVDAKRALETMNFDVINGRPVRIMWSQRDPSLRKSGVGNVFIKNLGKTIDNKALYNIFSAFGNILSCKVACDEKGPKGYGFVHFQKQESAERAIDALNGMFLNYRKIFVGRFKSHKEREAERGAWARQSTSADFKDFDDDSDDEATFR
`ACGGGGG` has a 7-mer Z-score of 0.184.
The 7-mer Z-score of `GAACAAG` is reported as 0.383.
`AAUCUCG` gave a 7-mer Z-score of -0.0609.
`CGCCUCA` gave a 7-mer Z-score of -0.373.
The 7-mer Z-score of `GCUCUCG` is reported as -0.264.
For `ACGUCUU`, the 7-mer Z-score was -0.371.
With `GCAACAU` the 7-mer Z-score was 0.109.
With `CUUUGUC` the 7-mer Z-score was -0.402.

Series 3 — observed: enzyme activity; mode: inhibitor; concentration: 20 µM; notes: hit confirmation
Target: Replicase polyprotein 1ab, main protease (rep, Severe acute respiratory syndrome coronavirus 2, UniProt P0DTD1)
With `O=C1/C(=C/c2ccc([N+](=O)[O-])cc2)CS(=O)(=O)C/C1=C\c1ccc([N+](=O)[O-])cc1` the inhibition was 57.1%.
For `Sc1nnc(-c2ccccc2Cl)o1`, the inhibition was 68.3%.
`CC/C=C(\C(=O)N[C@@H]1C(=O)N2C(C(=O)OCOC(=O)C(C)(C)C)=C(COC(N)=O)CS[C@H]12)c1csc(N)n1` gave an inhibition of 18%.

Series 4 — technique: protein-binding microarray; form: double-stranded DNA, one strand shown; sample: in vitro; concentration: 250 nM; notes: 60-bp whole probe; with: salmon DNA 0.4 mg/ml; relative to: random background probes; direction: higher = stronger binding; shared flanks, not repeated: GCCTAGCAC … GTCTTGATTCGCTTGACGCTGCTG
Target: Interferon regulatory factor 7, full length, phosphomimetic (IRF7, Homo sapiens, UniProt Q92985, residues 1-503, S101K/S471D/S472D/S475D/S476D/S477D/S483D/S484D/S487D)
Construct (chain): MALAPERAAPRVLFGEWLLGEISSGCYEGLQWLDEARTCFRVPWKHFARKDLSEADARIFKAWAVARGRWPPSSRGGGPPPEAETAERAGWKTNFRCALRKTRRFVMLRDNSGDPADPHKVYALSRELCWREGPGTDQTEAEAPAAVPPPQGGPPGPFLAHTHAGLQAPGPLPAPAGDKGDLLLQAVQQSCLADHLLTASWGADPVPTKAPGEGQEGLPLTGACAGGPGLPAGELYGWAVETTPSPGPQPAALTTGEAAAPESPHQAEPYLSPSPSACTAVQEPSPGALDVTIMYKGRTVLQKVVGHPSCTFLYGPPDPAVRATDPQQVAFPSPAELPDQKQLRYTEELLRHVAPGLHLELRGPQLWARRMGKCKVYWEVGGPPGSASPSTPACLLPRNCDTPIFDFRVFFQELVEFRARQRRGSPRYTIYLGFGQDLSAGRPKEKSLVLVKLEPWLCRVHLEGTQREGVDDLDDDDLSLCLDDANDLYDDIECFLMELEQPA
`GATGGTTTCGGACTGGGGACGTGCTAG` has a log fluorescence of 4.4 z-score.
For `GACGGTCTCCTTCTCCGGACGTGCTAG`, the log fluorescence was 0.243 z-score.
The log fluorescence of `GACGGTATCCTTAGCCTGACGTGCTAG` is reported as -0.241 z-score.
`GCATTTTTCTAATTTACTTTGTGCTAG` gave a log fluorescence of 1.77 z-score.
The log fluorescence of `GACGGACTGGCGTTTCGGGACGTGCTA` is reported as -0.405 z-score.
The log fluorescence of `TTAGGTATCGGGTATCGGTTAGTGCTA` is reported as 1.67 z-score.
`TAGGTTTTCTGGTTCCCATTGTGCTAG` gave a log fluorescence of 1.67 z-score.
For `TTTTTTTTTACTTCGGGTGAGTGCTAG`, the log fluorescence was 0.8 z-score.

Series 5 — mode: inhibitor; concentration: 20 µM
Target: Replicase polyprotein 1ab, nsp13 helicase (rep, Severe acute respiratory syndrome coronavirus 2, UniProt P0DTD1)
With `CCC1(C)CC(=O)NC(=O)C1` the inhibition was -3.17%.
For `CC(=O)O[C@H]1C(=O)[C@@]2(C)[C@H]([C@H](OC(=O)c3ccccc3)[C@]3(O)C[C@H](OC(=O)[C@H](O)[C@@H](NC(=O)c4ccccc4)c4ccccc4)C(C)=C1C3(C)C)[C@]1(OC(C)=O)CO[C@@H]1C[C@@H]2O`, the inhibition was 4.05%.
`OCCNC1CCCc2c1[nH]c1ccc(-c3ccccc3)cc21` (centres unmarked) has an inhibition of -0.6%.
With `Oc1ccc(C2CNCCc3c2cc(O)c(O)c3Cl)cc1` (centres unmarked) the inhibition was 5.88%.
`CC(C)(C)[C@H]1CC[C@H](CC2=C(O)C(=O)c3ccccc3C2=O)CC1` gave an inhibition of -2.97%.
The inhibition of `Cc1ccc2nc(NCCN)c3ncc(C)n3c2c1` is reported as 16.1%.
The inhibition of `Brc1ccc(NC2C3CC4CC(C3)CC2C4)cc1` (centres unmarked) is reported as 0.45%.
`NNc1nncc2ccccc12` gave an inhibition of 3.7%.
`C=CC[C@@H]1/C=C(\C)C[C@H](C)C[C@H](OC)[C@H]2O[C@@](O)(C(=O)C(=O)N3CCCC[C@H]3C(=O)O[C@H](/C(C)=C/[C@@H]3CC[C@@H](O)[C@H](OC)C3)[C@H](C)[C@@H](O)CC1=O)[C@H](C)C[C@@H]2OC` has an inhibition of 9.43%.
With `Oc1cc(O)c2cc(O)c(-c3cc(O)c(O)c(O)c3)[o+]c2c1` the inhibition was 71.8%.
The inhibition of `CCCCCCCCCCCCCCCCNc1ccc(C(=O)O)cc1` is reported as -18%.
With `O=C(O)c1ccc[n+]([O-])c1` the inhibition was -0.25%.
The inhibition of `CCCCCCCCCCCCCCCC[N+](C)(C)Cc1ccccc1` is reported as 48.6%.
`CC[C@H]1CN2CCc3cc(OC)c(OC)cc3[C@@H]2C[C@@H]1C[C@H]1NCCc2cc(OC)c(OC)cc21` has an inhibition of 5.48%.
`CN(C)CCn1nnnc1SCC1=C(C(=O)O)N2C(=O)[C@@H](NC(=O)Cc3csc(N)n3)[C@H]2SC1` has an inhibition of -0.09%.
`C/C=C(/C(=C/C)c1ccc(O)cc1)c1ccc(O)cc1` gave an inhibition of 7.99%.
`CCOC(=O)c1ncn2c1CN(C)C(=O)c1cc(F)ccc1-2` has an inhibition of -1.77%.
The inhibition of `CC(=O)[C@]1(N)Cc2c(O)c3c(c(O)c2[C@@H](O[C@H]2C[C@H](O)[C@H](O)CO2)C1)C(=O)c1ccccc1C3=O` is reported as 56.9%.
With `CS(=O)(=O)c1ccc(Oc2cc(F)cc(C#N)c2)c2c1[C@H](O)C(F)(F)C2` the inhibition was 2.49%.
`COc1c(O[C@@H]2O[C@H](CO)[C@@H](O)[C@H](O)[C@H]2O)cc2c(c1OC)-c1ccc(SC)c(=O)cc1[C@@H](NC(C)=O)CC2` has an inhibition of 5.44%.
`CC(C)c1nc(CN(C)C(=O)N[C@H](C(=O)N[C@@H](Cc2ccccc2)C[C@H](O)[C@H](Cc2ccccc2)NC(=O)OCc2cncs2)C(C)C)cs1` has an inhibition of -0.27%.
`COc1ccc(Cc2nn3c([C@@H](CCCc4ccccc4)[C@@H](C)O)nc(C)c3c(=O)[nH]2)cc1OC` has an inhibition of 5.87%.
`C[C@@H]1CN(c2c(F)c(N)c3c(=O)c(C(=O)O)cn(C4CC4)c3c2F)C[C@H](C)N1` has an inhibition of 3.38%.
The inhibition of `Cn1c(=O)c2c(ncn2CC(O)CO)n(C)c1=O` (centres unmarked) is reported as -1.68%.
The inhibition of `C=C[C@@H]1C[C@]1(NC(=O)[C@@H]1C[C@@H]2CN1C(=O)[C@H](C(C)(C)C)NC(=O)O[C@@H]1C[C@H]1CCCCCc1nc3ccc(OC)cc3nc1O2)C(=O)NS(=O)(=O)C1CC1` is reported as 5.71%.

Series 6 — cell line: HEK-293T; observed: pseudovirus infection; technique: FDA-approved drug library screen; organism: VSV pseudotyped with SARS-CoV-2 spike; concentration: 10 µM; time: 16 h; relative to: vehicle-treated
`CN1CC(=O)N2[C@H](c3ccc4c(c3)OCO4)c3[nH]c4ccccc4c3C[C@@H]2C1=O` gave a GFP-positive cells of 111%.
`CCc1cc2c(cc1CC)CC(NC[C@H](O)c1ccc(O)c3[nH]c(=O)ccc13)C2` has a GFP-positive cells of 64.8%.
`CC(=O)[C@H]1CC[C@H]2[C@@H]3C[C@H](C)C4=CC(=O)CC[C@]4(C)[C@H]3[C@@H](O)C[C@]12C` has a GFP-positive cells of 109%.
`CCC(=O)OCC(=O)[C@@]1(OC(=O)CC)[C@@H](C)C[C@H]2[C@@H]3CCC4=CC(=O)C=C[C@]4(C)[C@@]3(Cl)[C@@H](O)C[C@@]21C` has a GFP-positive cells of 84.2%.

Some of these lines once more (series 2):
`CGCCUCA` gave a 7-mer Z-score of -0.373.
For `ACGUCUU`, the 7-mer Z-score was -0.371.
The 7-mer Z-score of `GAACAAG` is reported as 0.383.
The 7-mer Z-score of `GCUCUCG` is reported as -0.264.
